Results gathered from unrelated publications.
Each numbered part is a random draw from the data of one study; scales do not carry over between parts. Substitutions count along the parent as printed.

Study 1 — method: protein binding microarray; molecule type: double-stranded DNA, one strand shown; matrix: in vitro; tested at: not given; relative to: not given; reading: higher = stronger binding
Target: Histone acetyltransferase KAT6A, winged helix 2, GST fusion (KAT6A, Homo sapiens, UniProt Q92794, residues 85-181)
Setting: 8-mer, flanks averaged, mean of 2 arrays, mostly near background
Residues (chain): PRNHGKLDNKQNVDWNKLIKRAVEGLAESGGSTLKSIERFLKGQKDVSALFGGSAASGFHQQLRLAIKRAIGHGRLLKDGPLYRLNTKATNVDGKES
| Strand | E-score |
| --- | --- |
| CATGTCCG | -0.176 |
| AGGGCCTG | 0.0658 |
| CTATGAGA | -0.0598 |
| AAACATGT | -0.155 |
| AGTATTAC | -0.0235 |
| ACTATAGA | -0.0501 |
| CCGCTGTA | 0.144 |
| CCATAACG | -0.0944 |
| AAGATGAC | 0.0305 |
| ACATGGCG | -0.167 |
| GCGACCCC | -0.0136 |
| ATCGTCTG | -0.0893 |
| CGAAGACC | 0.173 |
| AAATTACC | -0.128 |
| ACGGTCTA | -0.154 |
| AACGGATA | -0.0143 |
| GTGCTGTA | 0.129 |
| ACAAAGGG | -0.0438 |

Study 2 — method: RNA Bind-n-Seq; molecule type: RNA; matrix: in vitro; tested at: 365 nM; relative to: no-protein control; reading: higher = stronger binding
Target: RNA binding protein fox-1 homolog 2, RRM domain, GST-SBP tag (RBFOX2, Homo sapiens, UniProt O43251-10, residues 100-194)
Setting: natural RNA segment, single round, ends assumed
Shared flanks, not repeated: GGGAGUUCUACAGUCCGACGAUC … UGGAAUUCUCGGGUGCCAA
Target sequence (chain): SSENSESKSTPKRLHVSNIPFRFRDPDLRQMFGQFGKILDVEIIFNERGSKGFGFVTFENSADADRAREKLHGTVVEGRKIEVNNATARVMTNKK
| Strand | RBNS enrichment (R) |
| --- | --- |
| UCUGUACGUGCAACUGGGAAACUUUUGUCCUUUGAGGCUAGGCAGCUCCCUGCCCUCCGUGUGUGUCUGUUAUCUGGGGGAGAGGAGUGUGGAAGGGUUGGGGGAAGAGC | 2.37 |
| CUUCUUGGGCCCGGUCCACAGGUCCAAGGACACCCUCCCUCCAGGGUCCUCUCUUCCACAGUGGCGGGCCCACUCAGCCCCGAGACCACCCAACCUCACCCUCCUGACCC | 0.345 |
| CAAGCCCAGGCAGACGAGACCUCUGCCCUGAAGACCAACACCAGCCCGUGGGCUGCCCCCUGCCUCCCCACCCUCCCCAUGGCCCACCCAUCUGGGCUGUCUCUGCAGGG | 0.314 |
| AGUAACCCUCAAGUGAAGUGUCUCUAUACUGUUUUAUAGAGUACUUUAACAUGAAUAGAUACCUUGUAAACUUGUAUUGUGGAUGUGUAAAUAAUAUGUACUUUGGGUUU | 0.819 |
| GGGUGUUUCUGUGGGUACUCCUCUUACCCCAGCAAAUAAAAGGAAUUGUCUGACCCUAGAGGCAGAUGCUGCACUGCACUACUCCAAUGUCUUCCAUGGAGCCUCAGGUG | 0.539 |
| GUCACCAGUGUUUGGUACCCAAGUCGUUCCAGUGGGAACAAUGUCUGUUUGAGUAAACUAAGACUGACAGGGGAAUCGGGGUGCUCACAAGCGAGUCCCUCCAGCUGCUU | 0.552 |
| UGCUAAACCGUGGCAAUUCAUCAACGGGAAACAUUAGUGAAUUGAAGGCAUUCCUUGUUUUUAACUAAUAUUUGCACAUUUUCUUAGUCUCCUUCCUGAUGGUCGCCCGU | 0.366 |
| UAGUUGAGACUUGUAGACAUUUAUUUAUACUGUGUCAUGUUUUAUAAUUUAUACAUAAAAUGUCUGGUUGACUGUACACCUUGUUUUUUUGAAGAAAUUUAUUCGUGAAA | 1.61 |
| UUUUUUUCCUCUCUUUUUCAGUUAUGAAACUUGUAUGCAUGGAUUUCACAUCUCCAUAGCUAGACCCGCCAUGGGCAUUAUGACCGUGUCUCCUAAAGGGUCGGUUUUGU | 0.424 |
| CCCCAUCCCUAUCCUGCCUGAUCCCUGGAUCUCCCUCAGAUCCCCUCUUCUCAGACAGCGCCAGGCCGGGGUGGGGCCGGGGUUGGGGCCGAGCCCCACAGCUGCCCCCC | 0.39 |
| UUCUUUGUCCUCAAAACUGGCAGAUACUGGAGCUGGGCAGCCAUUUUUCCUUUUAGUGUCUCUUGAAGCUACAUGGCUAGAAUAGAUAUGAUUUGGAGGGUUUAAUUUCC | 0.264 |
| GGCAGCAUACUGUGCCAGCCAUGCACUGUAUUAGGGAGGGGGAUGUCAACAGCCUUGGUUGAGGUGGGAAUGCAAUUGAUGGGAGCCUGCUGCUGUGUCCUUCUCUACUC | 8.09 |

Study 3 — target: FOSB, bZIP domain (human); method: DHFR protein complementation; matrix: yeast; relative to: wild-type JUN-FOS pair; reading: higher = stronger binding
Setting: single substitutions, most at no-binding floor
Starting sequence: JUN, bZIP domain (human); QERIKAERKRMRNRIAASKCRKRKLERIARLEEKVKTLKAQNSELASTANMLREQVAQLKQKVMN; partner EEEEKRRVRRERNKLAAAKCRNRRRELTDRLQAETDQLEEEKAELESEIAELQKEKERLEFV
| Substitution | binding fitness |
| --- | --- |
| A46D | -0.813 natural log |
| L31D | -0.702 natural log |
| A49R | 0.134 natural log |
| N42Y | -0.763 natural log |
| A40S | -0.112 natural log |
| I28G | -0.283 natural log |
| K34R | 0.0707 natural log |
| L38I | -0.689 natural log |
| K34C | -0.229 natural log |
| A57H | -0.0818 natural log |
| R30M | -0.0452 natural log |
| A29G | -0.188 natural log |
| L38A | -0.759 natural log |
| E54I | -0.198 natural log |
| E33L | -0.124 natural log |
| K36H | -0.111 natural log |
| Q41L | -0.219 natural log |

Study 4 — method: DHFR PCA, deep sequencing; matrix: yeast; with: (+)-ABA 2500 µM; relative to: wild-type fitted maximum; reading: higher = stronger binding
Target: ABI1, truncated, D143A, DHFR fusion (Arabidopsis thaliana)
Setting: methotrexate growth selection, single substitutions
Starting sequence: PYL1, truncated, DHFR fusion (Arabidopsis thaliana); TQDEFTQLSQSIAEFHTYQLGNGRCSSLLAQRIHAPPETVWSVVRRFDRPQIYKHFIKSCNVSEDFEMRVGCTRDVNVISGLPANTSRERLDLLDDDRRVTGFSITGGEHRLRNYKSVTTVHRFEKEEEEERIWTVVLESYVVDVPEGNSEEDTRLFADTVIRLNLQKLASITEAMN; partner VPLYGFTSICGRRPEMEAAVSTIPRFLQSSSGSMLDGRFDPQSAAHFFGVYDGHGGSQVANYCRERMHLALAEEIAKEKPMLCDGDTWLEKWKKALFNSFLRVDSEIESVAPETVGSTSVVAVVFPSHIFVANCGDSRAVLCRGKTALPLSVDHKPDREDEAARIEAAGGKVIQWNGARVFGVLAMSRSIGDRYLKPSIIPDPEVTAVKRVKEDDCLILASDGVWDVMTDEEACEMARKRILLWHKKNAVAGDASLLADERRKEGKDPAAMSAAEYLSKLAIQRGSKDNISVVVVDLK
| Substitution | relative binding score |
| --- | --- |
| V43G | 27.9% |
| D97N | 105% |
| E14G | 88.8% |
| R113V | 108% |
| D96I | 85.2% |
| R155D | 25% |
| N114A | 93.2% |
| L82C | 93.4% |
| S11M | 97.7% |
| A30M | 104% |
| V137F | 12.1% |
| D159M | 71.6% |
| V145P | 81.7% |
| I172G | 78.3% |
| W41L | -2.78% |
| E130L | 103% |
| H34C | 109% |
| H122Y | 62.9% |

Study 5 — target: CCNA1, cyclin fold, Cln2 fusion (human); method: yeast growth competition, sequencing; matrix: yeast; setting: weak parent motif; relative to: not given; reading: higher = stronger binding
Starting sequence: BRCA2 docking peptide (human); CKKRRALDFLSRL; partner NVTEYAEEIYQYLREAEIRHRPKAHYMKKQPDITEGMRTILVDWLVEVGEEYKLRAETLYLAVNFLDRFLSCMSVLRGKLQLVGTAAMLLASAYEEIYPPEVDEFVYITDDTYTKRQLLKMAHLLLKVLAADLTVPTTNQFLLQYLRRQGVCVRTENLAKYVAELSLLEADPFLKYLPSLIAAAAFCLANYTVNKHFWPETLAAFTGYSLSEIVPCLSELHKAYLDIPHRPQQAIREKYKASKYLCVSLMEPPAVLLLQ
| Substitution | normalised enrichment score |
| --- | --- |
| L13A | 0.473 |
| F9L | -0.178 |
| R4A | 0.187 |
| R5A L7A | 0.263 |
| R5A | 0.341 |
| L7A | 0.511 |
| R5K F9L | 0.386 |
| K3A | 0.126 |
| D8A | 0.238 |

For quick reference, copied from above (study 3):
| Substitution | binding fitness |
| --- | --- |
| L38I | -0.689 natural log |
| K34C | -0.229 natural log |
| A57H | -0.0818 natural log |
| R30M | -0.0452 natural log |
| A29G | -0.188 natural log |
| L38A | -0.759 natural log |
| E54I | -0.198 natural log |
| E33L | -0.124 natural log |
| K36H | -0.111 natural log |
